Published values pooled from the literature.
A part holds a random share of what one study measured.

Sample 1 — technique: protein-binding microarray; form: double-stranded DNA, one strand shown; sample: in vitro; concentration: not given; direction: higher = stronger binding
Target: Transcriptional repressor CTCF (CTCF, Homo sapiens, UniProt P49711, residues 1-727, full length assumed)
Chain of UniProt P49711 (whole entry, looked up): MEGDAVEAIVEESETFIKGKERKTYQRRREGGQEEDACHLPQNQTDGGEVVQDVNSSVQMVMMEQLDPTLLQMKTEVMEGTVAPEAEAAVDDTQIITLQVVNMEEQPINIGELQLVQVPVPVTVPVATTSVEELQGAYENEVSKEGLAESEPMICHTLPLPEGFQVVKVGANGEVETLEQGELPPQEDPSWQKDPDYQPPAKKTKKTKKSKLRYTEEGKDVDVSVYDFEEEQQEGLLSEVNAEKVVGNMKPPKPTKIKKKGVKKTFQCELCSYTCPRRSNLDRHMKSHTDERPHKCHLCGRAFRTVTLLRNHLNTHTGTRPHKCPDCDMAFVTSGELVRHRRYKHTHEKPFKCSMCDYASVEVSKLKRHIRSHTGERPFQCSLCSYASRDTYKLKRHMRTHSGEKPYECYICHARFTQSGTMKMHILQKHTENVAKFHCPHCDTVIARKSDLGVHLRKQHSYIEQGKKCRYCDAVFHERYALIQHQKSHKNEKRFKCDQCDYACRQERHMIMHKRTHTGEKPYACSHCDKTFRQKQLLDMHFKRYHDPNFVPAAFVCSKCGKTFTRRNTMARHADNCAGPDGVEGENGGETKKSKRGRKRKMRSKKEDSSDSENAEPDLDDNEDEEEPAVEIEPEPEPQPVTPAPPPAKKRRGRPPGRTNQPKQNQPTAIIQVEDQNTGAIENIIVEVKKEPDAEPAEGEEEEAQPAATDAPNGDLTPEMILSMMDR
Setting: k-mer, scored over probes, only values ≥0.25
| Oligonucleotide | E-score |
| --- | --- |
| AATTTTAT | 0.268 |
| CCCCCTGC | 0.295 |
| ATGTATAA | 0.341 |
| ACGCGCAT | 0.342 |
| AACAAGAA | 0.301 |
| CGCGCCCC | 0.343 |
| ATGCTAAT | 0.253 |
| CACATATA | 0.378 |
| ATATGTGG | 0.342 |
| ATATACAG | 0.285 |
| ATGTGATA | 0.322 |

Sample 2 — technique: RNA Bind-n-Seq; form: RNA; sample: in vitro; concentration: 365 nM; baseline: no-protein control; direction: higher = stronger binding
Target: RNA binding protein fox-1 homolog 2, RRM domain, GST-SBP tag (RBFOX2, Homo sapiens, UniProt O43251-10, residues 100-194)
Setting: natural RNA segment, single round, ends assumed
All sequences stand within: GGGAGUUCUACAGUCCGACGAUC … UGGAAUUCUCGGGUGCCAA
Residues (chain): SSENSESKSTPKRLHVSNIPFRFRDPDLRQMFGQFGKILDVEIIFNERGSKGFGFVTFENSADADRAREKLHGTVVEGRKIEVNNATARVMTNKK
| Oligonucleotide | RBNS enrichment (R) |
| --- | --- |
| GUGACCAGAGUAGACUUGGGGCAUGGCCAUUGGGGUCAUAUGUUUAUUUUUCAUUGUGUUUUGUGACCUCAGCAGGGUGGGGGUCUUCCUCCUUACUCUAAGCUAAAUCU | 1.22 |
| GCUGGGCCCCAGUCUCCAAGGGCGAGAAUGGACCCUGAUGGACUUGGACAUGGAGCUGUCCUUGGGAAGGACCCCACGCUCGGGGCCCCACUCCUGCUGGAUGUCCAGGC | 0.226 |
| GCUGCAAACCUAAGCAGGCAGGUAGUCUAUGGACUUCCAAACUUAGAAGGGUCUGAUAUUAGGUUUAGUGCUCUGCUAGUGCAGUUGUUGAAUUCUUAAGAAUGUUUGAU | 1.9 |
| AGCCACCCAUCCUAAGGAGGCAAGCACUUGGCCUCUUUGAGUGAGACUUGGCUUUAGGACUCUCUGCAUCAGCCUUGUGUGCAUCAGGCACUGGAAAGCCUCUGUCUUCC | 14.8 |
| GGCAGAGAACUCAGGAGCUCUGCACUCAACGCCCCUGCUGCCUCGCCCCCUCCCUGACAGGUGUCUUGUCAAGGUGUAUCCUCCGAGUAUCUUGACCACCUGGCACCAUG | 0.34 |
| UACAGAAGAAAUAGUUGCCACUGUCUAGGACAGUGCUGAAGCUAGGUGGUUAAACGGGUAACAGAAAUACUGUAUUGUGAGAAAUGACACAACAAAAGCCGGCAGGCAUC | 0.42 |
| GGUUGUUUUUACAAAUCUCUCUCAGAUAUAUUAUUUUCAUGACAAAAAUGAAGGAGCUUUGUAAAUUUUUUAAAAAUUAUGAAUCGUAUCAAGUAGUUGUUUACAUUUGA | 1.45 |
| GCCUUAUCAAGUGUCUUCCAUCAUGGAUUCAUUACAGCUUAAUCAAAAUAACGCCCCAGAUACCAGCCCCUGUAUGGCACUGGCAUUGUCCCUGUGCCUAACACCAGCGU | 0.363 |

Sample 3 — technique: protein-binding microarray; form: double-stranded DNA, one strand shown; sample: in vitro; concentration: 0.8 µM; setting: whole 60-bp probe, no competitor; direction: higher = stronger binding; all sequences stand within: … GTCTTGATTCGCTTGACGCTGCTG
Target: Centromere-binding protein 1, full length, N-terminal tag (CBF1, Saccharomyces cerevisiae, UniProt P17106, residues 1-351)
Chain of UniProt P17106 (whole entry, looked up): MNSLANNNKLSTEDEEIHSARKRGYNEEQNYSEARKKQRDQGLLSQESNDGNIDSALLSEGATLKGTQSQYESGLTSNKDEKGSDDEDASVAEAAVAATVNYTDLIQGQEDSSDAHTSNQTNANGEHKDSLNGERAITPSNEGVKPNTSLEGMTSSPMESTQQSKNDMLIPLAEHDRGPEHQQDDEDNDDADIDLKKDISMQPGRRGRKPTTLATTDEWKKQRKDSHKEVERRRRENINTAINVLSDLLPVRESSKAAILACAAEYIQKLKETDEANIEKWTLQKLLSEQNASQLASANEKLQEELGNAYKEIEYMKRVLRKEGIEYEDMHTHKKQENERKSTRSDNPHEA
| Oligonucleotide | fluorescence intensity |
| --- | --- |
| GAATTAGGTCATGGTCACATCTTATTATATAAATAG | 666 a.u. |
| CTACCGAAACGGTGACAGCTGAGTTCGCTCAAATTC | 486 a.u. |
| CTATTCGTGGATGGTCATGCGTATTTAAGAATATTC | 766 a.u. |
| GAATGTAGATGGGACCATCAGATGTGGAACGAATAG | 527 a.u. |
| GAACCCAGCAGAGGTCATCACGTAGCTACAGGATAG | 528 a.u. |
| GAACCACCATTGAACGTGATTATGACTTCCAATTAG | 847 a.u. |
| CTATTCTTCCTATTTCTGATGCATTGAACAGATTTC | 577 a.u. |
| CCTAACTACTATAATCACAAAATATAGCTTCGTACA | 522 a.u. |
| CTAACGTTGCACAACCACGCAATAGAAGATAATTTC | 553 a.u. |
| GAACTGTTTTCTGTGCGCACTCTACGCTGATCGTAG | 491 a.u. |
| GAATTTTCATATATGCACATGTAAATATATGCGTAG | 734 a.u. |
| GAAATGCTTATACGTGATTTGTTATATAAGGGATAG | 821 a.u. |
| CTAAGGCCATATTATCACGTAACAAACCTAATTTTC | 553 a.u. |

Sample 4 — technique: protein-binding microarray; form: double-stranded DNA, one strand shown; sample: in vitro; concentration: 2200 nM top; setting: 60-bp whole probe; together with: salmon DNA 0.4 mg/ml; baseline: random background probes; direction: higher = stronger binding; all sequences stand within: GCCTAGCAC … GTCTTGATTCGCTTGACGCTGCTG
Target: Interferon regulatory factor 7, full length, phosphomimetic (IRF7, Homo sapiens, UniProt Q92985, residues 1-503, S471D/S472D/S475D/S476D/S477D/S483D/S484D/S487D)
Chain of UniProt Q92985 (whole entry, unmodified, looked up): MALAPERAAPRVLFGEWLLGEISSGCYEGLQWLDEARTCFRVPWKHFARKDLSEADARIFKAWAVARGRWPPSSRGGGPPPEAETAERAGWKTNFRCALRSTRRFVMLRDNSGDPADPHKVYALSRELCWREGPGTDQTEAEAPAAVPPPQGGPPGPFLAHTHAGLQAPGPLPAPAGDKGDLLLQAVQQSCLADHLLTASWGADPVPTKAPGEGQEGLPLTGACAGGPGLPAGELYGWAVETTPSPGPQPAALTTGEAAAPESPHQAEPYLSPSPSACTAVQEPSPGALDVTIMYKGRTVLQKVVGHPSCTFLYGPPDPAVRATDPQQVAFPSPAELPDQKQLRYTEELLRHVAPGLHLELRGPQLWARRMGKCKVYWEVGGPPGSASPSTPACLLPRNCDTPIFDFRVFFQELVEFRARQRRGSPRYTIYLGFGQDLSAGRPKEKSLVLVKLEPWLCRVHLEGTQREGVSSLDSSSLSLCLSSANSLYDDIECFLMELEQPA
| Oligonucleotide | fitted relative affinity [z-score] |
| --- | --- |
| GACGAACTGATACTGGAGACGTGCTAG | -0.0731 |
| GACGGTATCCCTTTCCTGACGTGCTAG | 1.7 |
| AGAGCCATCAATATCTGCAAGTGCTAG | -0.484 |
| TTAGGTATCGGGCTTCGGTTAGTGCTA | 0.139 |
| GACGGTATCGACTAGCGGGACGTGCTA | 0.0536 |
| GACGGCTTCGACTATCGGGACGTGCTA | -0.38 |
| CTGTTTTTGCTTTCTTTTTGGTGCTAG | 7.15 |
| TCATCTCTCTGTGACACACTGTGCTAG | 1.51 |
| GACAATTTCAGACTGGAGACGTGCTAG | 0.0534 |
| TTGGGTATCGGTCTCGGTTAGTGCTAG | 1.03 |
| TTAGACTTCAGTTCCGATTAGTGCTAG | 0.776 |
| TTAGATTTCAGTATCGATTTGTGCTAG | 1.95 |
| GACGGACTGGGTTTCAGGACGTGCTAG | -0.412 |
| CCAACTCGCCTTTTTTGTTGGTGCTAG | 1.49 |
| TTATGTATCCTTCTCCTTTAGTGCTAG | 2.08 |
| TTTGGTTTCCTTATCCTTTAGTGCTAG | 3.61 |
| TTAGGTTTCCTCATCCTTTAGTGCTAG | 1.66 |
| TCATTTTTCTTTAAAAGACTGTGCTAG | 1 |
| TCAATTTTTACTTTCTGACTGTGCTAG | 3.08 |

Some of these lines once more (sample 4):
| Oligonucleotide | fitted relative affinity [z-score] |
| --- | --- |
| TTAGACTTCAGTTCCGATTAGTGCTAG | 0.776 |
| CCAACTCGCCTTTTTTGTTGGTGCTAG | 1.49 |
| TTTGGTTTCCTTATCCTTTAGTGCTAG | 3.61 |
| TCAATTTTTACTTTCTGACTGTGCTAG | 3.08 |
| CTGTTTTTGCTTTCTTTTTGGTGCTAG | 7.15 |
| TTAGATTTCAGTATCGATTTGTGCTAG | 1.95 |
| TTGGGTATCGGTCTCGGTTAGTGCTAG | 1.03 |
| GACGGACTGGGTTTCAGGACGTGCTAG | -0.412 |
